Measured values pooled from the literature.
Protocols differ between the studies behind these lines.
PRKAA1: 5'-AMP-activated protein kinase catalytic subunit alpha-1 (PRKAA1, Homo sapiens, UniProt Q13131)
UniProt Q13131, sequence (whole entry, looked up): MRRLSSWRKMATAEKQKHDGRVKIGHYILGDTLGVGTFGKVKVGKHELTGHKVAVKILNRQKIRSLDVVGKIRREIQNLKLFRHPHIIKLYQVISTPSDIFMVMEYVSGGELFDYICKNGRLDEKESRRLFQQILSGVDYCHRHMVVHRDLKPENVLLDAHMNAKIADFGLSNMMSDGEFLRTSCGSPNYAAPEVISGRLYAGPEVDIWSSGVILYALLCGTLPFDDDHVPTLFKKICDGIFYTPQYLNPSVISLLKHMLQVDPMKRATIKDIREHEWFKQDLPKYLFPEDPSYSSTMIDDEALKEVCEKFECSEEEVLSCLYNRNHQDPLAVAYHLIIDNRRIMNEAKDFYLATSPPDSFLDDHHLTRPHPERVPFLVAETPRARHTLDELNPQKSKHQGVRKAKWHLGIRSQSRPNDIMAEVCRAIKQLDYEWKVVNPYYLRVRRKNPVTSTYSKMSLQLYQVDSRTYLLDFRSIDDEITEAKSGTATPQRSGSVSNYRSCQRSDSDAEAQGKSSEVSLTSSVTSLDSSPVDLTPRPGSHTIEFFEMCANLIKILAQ
PRKAA1 with beta1, gamma1: 5'-AMP-activated protein kinase catalytic subunit alpha-1, with beta1, gamma1 (PRKAA1, Homo sapiens, UniProt Q13131)

| SMILES | target | assay | system | setting | how to read | endpoint | value |
| --- | --- | --- | --- | --- | --- | --- | --- |
| COc1cc(-c2cncc3c2CN(C)Cc2cc(N4CCNCC4)ccc2-3)cc(OC)c1OC | PRKAA1 | enzyme activity |  | 1 µM, together with: 10 µM ATP | baseline: DMSO | remaining activity | 96% |
| N#CC1(c2ccc(NC(=O)c3cccnc3NCc3ccncc3)cc2)CCCC1 | PRKAA1 | phosphoproteomics |  | concentration not given | baseline: untreated | phosphorylation fold change | 3.71 fold |
| COc1ccc2oc(-c3ccc4nc(N)oc4c3)c/c(=N\c3ccccc3NC(=O)CCN)c2c1 | PRKAA1 | kinase activity |  | 1 µM | baseline: untreated control | remaining activity | 106% |
| Cc1cc(NC(=O)c2cccc3cc(-c4cccc5[nH]nc(N)c45)ccc23)ccc1F | PRKAA1 | enzyme activity, kinase profiling panel |  | 0.1 µM |  | remaining activity | 103% |
| COc1cc2ncnc(Nc3ccc(Oc4ccccc4)cc3C)c2cc1OC | PRKAA1 with beta1, gamma1 | kinase activity, inhibitor |  | 1 µM |  | inhibition | -1% |
| Cc1ccc(NC(=O)c2ccc(C)c(C(F)(F)F)c2)cc1C#Cc1nn(C2CCC(O)CC2)c2ncnc(N)c12 (stereo not shown) | PRKAA1 | enzyme activity |  | 10 µM, together with: ATP 10 µM |  | remaining activity | 109% |
| CC(C)c1ccc(NC(=O)c2cccs2)c(-c2nc3ccccc3[nH]c2=O)c1 | PRKAA1 | kinase activity |  | 1 µM |  | remaining activity | 113% |
| CN(C)C1CCN(CC#Cc2nn(C3CCCC3)c3nc(NCc4ccccc4)ncc23)C1 (stereo not shown) | PRKAA1 with beta1, gamma1 | enzyme activity, inhibitor, Z'-LYTE |  | 100 nM |  | inhibition | 0% |
| Cc1ccc(C(=O)NCc2ccsc2)cc1C#Cc1cn(C(C)C)c2ncnc(N)c12 | PRKAA1 | kinase activity |  | 1 µM, together with: ATP at Km |  | remaining activity | 94% |
| COc1cccc(CN(CCN(CCN(C)C)Cc2ccccc2)Cc2ccccc2)c1 | PRKAA1 | kinase activity, inhibitor |  | concentration not given |  | inhibition | no inhibition |
| CCN(CC)c1ccc(C2=NNC(=O)CC2C)cc1[N+](=O)[O-] (stereo not shown) | PRKAA1 | kinase activity, inhibitor |  | 10 µM |  | remaining activity | 110% |
| CC[C@@H]1[C@H](F)C(=O)N[C@@H]1COc1nccc2cc(C(N)=O)c(OC)cc12 | PRKAA1 | ATP probe binding, KiNativ profiling, measured: ATP loop probe site | THP-1 cell lysate | 0.04 mM |  | inhibition | 4.2% |
| CC/C(=N\NC(=O)NCc1cccc(O)c1)c1ccc(O)c(C)c1O | PRKAA1 with beta1, gamma1 | kinase activity |  | 0.1 µM |  | inhibition | 11.4% |
| Cc1cnc(NC2CCOCC2)nc1-n1cnc(C(=O)NC(CN)c2cc(F)cc(Cl)c2)c1 (stereo not shown) | PRKAA1 | radiometric |  | 1 µM |  | remaining activity | 34% |
| CCCOc1ccc(OC)c(F)c1C(=O)c1ccc(C(=O)N[C@@H]2CNC[C@H]2NC(=O)c2ccc3[nH]ncc3c2)cc1 | PRKAA1 | kinase activity |  | 10 µM |  | remaining activity | 1% |
| COc1cc(Cl)c(C(=O)N[C@@H](CN[C@H]2CC[C@@H](N)CC2)Cc2ccc(C#N)cc2)cc1-c1ccc(CN[C@H](C)c2ccc(C)cc2)o1 | PRKAA1 | enzyme activity, KinaseProfiler panel |  | 1 µM |  | remaining activity | 94% |

Some of these lines once more:
| SMILES | target | assay | system | setting | how to read | endpoint | value |
| --- | --- | --- | --- | --- | --- | --- | --- |
| CC/C(=N\NC(=O)NCc1cccc(O)c1)c1ccc(O)c(C)c1O | PRKAA1 with beta1, gamma1 | kinase activity |  | 0.1 µM |  | inhibition | 11.4% |
